{"data": "Results pooled from the literature", "note": "A part holds a random share of what one study measured.", "UniProt P11362, sequence (whole entry, looked up)": "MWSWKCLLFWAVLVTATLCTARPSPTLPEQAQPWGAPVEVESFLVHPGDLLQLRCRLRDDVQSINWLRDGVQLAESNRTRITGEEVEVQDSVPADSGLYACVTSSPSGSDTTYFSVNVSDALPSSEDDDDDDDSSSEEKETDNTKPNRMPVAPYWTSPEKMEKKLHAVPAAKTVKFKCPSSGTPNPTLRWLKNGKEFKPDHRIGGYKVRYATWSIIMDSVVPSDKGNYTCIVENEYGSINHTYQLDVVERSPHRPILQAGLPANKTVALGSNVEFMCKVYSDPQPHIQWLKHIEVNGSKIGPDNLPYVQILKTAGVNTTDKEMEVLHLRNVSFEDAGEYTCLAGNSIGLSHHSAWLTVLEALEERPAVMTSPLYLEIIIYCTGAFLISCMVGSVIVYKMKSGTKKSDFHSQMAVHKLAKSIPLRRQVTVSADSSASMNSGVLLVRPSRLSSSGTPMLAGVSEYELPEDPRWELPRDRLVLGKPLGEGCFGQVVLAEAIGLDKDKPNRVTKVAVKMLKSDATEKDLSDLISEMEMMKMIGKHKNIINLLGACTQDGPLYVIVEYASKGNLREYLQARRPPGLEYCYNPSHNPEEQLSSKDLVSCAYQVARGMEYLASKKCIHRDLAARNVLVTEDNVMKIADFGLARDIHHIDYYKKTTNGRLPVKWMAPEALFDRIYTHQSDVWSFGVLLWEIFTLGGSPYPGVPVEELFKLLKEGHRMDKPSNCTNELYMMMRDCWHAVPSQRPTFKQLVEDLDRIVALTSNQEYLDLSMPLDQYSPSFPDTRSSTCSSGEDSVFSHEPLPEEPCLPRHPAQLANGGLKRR", "UniProt P42684, sequence (whole entry, looked up)": "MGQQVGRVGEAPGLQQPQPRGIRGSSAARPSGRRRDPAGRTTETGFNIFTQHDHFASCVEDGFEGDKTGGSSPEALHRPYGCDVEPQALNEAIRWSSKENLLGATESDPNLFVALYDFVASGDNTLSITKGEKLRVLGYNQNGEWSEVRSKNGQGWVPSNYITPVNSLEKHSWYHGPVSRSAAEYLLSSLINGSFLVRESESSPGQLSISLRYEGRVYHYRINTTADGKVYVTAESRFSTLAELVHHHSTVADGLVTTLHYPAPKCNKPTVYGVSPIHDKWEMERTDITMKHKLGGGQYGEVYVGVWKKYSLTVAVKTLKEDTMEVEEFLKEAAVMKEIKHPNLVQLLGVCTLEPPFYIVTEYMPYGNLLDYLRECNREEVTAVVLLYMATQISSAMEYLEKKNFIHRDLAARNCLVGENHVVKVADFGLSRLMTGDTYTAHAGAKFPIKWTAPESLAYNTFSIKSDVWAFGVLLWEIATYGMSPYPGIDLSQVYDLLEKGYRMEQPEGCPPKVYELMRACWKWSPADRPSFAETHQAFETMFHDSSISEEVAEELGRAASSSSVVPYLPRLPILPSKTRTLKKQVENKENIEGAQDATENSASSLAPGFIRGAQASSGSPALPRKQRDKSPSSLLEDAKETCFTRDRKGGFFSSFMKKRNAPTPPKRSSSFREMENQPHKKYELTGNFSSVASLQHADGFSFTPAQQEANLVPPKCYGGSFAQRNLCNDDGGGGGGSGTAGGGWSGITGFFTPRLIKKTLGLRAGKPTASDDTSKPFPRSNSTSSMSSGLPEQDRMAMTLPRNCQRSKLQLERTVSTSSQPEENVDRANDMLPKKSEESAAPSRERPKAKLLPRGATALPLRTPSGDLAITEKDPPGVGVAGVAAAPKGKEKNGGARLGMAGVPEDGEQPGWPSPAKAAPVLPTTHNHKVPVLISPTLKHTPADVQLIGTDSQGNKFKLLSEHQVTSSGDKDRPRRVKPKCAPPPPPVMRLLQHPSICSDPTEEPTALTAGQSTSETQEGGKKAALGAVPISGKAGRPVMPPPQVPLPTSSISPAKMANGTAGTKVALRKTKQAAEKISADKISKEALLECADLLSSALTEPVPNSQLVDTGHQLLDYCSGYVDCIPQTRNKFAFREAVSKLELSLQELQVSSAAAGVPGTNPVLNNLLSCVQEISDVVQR", "UniProt Q9HC98, sequence (whole entry, looked up)": "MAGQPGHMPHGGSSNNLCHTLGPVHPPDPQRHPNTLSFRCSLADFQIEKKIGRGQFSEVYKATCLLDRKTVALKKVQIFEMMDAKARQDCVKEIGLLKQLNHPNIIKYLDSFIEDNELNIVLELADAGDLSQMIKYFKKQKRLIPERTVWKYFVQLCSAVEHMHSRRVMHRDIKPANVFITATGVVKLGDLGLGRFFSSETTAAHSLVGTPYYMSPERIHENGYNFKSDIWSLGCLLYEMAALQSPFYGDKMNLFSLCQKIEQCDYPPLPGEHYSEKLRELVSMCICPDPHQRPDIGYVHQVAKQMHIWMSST", "UniProt P10398, sequence (whole entry, looked up)": "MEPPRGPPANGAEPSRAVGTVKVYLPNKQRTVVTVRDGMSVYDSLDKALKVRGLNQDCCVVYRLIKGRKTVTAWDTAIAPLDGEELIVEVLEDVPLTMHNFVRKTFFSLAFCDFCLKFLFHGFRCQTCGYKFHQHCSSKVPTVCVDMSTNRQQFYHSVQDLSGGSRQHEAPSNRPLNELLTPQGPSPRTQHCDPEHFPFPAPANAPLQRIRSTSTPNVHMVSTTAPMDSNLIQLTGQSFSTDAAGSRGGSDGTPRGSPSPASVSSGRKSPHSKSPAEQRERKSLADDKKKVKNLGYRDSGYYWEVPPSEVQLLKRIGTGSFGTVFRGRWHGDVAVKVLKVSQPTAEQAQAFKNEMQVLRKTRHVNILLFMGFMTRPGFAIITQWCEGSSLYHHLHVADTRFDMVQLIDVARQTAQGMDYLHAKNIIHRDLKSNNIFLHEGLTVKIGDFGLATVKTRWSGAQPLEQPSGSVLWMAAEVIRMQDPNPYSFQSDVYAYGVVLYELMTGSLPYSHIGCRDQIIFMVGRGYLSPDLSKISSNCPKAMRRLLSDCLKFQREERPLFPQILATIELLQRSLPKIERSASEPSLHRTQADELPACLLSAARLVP", "UniProt Q9Y6M4, sequence (whole entry, looked up)": "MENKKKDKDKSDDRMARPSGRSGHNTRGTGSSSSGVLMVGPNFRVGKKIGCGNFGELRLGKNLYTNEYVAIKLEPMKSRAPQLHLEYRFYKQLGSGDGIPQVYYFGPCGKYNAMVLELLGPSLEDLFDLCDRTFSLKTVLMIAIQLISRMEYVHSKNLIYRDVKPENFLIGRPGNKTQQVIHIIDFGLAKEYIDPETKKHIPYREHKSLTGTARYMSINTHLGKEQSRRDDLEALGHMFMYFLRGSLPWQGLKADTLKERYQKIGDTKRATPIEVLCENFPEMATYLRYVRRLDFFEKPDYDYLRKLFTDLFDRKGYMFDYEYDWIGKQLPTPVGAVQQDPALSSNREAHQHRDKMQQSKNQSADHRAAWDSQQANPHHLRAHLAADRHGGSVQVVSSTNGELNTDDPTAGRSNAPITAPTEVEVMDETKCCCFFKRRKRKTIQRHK", "UniProt P30291, sequence (whole entry, looked up)": "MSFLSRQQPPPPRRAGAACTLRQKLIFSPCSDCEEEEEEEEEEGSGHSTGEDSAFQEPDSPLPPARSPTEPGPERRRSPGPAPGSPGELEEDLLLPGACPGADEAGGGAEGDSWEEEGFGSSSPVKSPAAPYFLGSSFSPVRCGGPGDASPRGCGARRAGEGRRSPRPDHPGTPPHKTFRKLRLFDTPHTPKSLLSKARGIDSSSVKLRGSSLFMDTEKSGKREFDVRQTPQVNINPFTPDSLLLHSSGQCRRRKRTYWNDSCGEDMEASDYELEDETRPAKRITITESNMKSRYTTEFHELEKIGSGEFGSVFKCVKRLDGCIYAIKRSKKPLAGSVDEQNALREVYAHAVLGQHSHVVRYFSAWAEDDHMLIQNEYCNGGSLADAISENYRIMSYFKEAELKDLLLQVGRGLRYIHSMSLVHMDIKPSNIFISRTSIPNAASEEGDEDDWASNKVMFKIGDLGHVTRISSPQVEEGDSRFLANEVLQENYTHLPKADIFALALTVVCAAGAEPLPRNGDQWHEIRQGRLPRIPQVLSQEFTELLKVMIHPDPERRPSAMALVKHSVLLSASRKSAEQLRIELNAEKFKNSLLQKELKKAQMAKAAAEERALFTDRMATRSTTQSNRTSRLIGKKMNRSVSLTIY", "UniProt Q5BJF2, sequence (whole entry, looked up)": "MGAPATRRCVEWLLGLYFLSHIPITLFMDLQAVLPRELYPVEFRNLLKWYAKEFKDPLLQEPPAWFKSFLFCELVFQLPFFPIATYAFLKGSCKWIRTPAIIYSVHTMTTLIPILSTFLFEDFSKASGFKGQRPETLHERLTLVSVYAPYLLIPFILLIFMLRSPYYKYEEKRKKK", "UniProt P25021, sequence (whole entry, looked up)": "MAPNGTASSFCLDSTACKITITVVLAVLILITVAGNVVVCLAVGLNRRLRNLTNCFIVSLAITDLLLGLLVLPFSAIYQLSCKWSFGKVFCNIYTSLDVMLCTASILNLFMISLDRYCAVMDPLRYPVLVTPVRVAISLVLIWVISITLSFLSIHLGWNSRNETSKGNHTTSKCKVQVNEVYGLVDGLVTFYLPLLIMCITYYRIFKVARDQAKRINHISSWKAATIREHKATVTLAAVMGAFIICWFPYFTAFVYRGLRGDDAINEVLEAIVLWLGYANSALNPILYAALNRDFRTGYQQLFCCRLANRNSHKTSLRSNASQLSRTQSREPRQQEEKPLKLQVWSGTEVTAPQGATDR"}
{"data": "Study 1", "target": "PABPC1L2, full length, GST fusion (mouse, UniProt A0ABA7IW68)", "technique": "RNAcompete", "form": "RNA", "matrix": "in vitro", "tested at": "20 nM", "setting": "7-mer, probes averaged, single round", "relative to": "mean of 7-mers", "direction": "higher = stronger binding", "Construct (chain)": "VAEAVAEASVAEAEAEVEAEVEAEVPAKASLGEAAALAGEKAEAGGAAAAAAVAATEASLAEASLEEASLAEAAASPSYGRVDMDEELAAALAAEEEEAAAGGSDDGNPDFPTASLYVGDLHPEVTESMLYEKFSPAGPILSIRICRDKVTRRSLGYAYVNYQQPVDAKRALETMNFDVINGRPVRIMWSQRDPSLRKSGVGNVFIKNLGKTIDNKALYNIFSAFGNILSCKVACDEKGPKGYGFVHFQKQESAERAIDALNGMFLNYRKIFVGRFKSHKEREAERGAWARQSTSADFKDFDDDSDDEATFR"}
{"Oligonucleotide": "GUUAUAU", "7-mer Z-score": -0.291}
{"Oligonucleotide": "GAAACAU", "7-mer Z-score": 1.5}
{"Oligonucleotide": "GCACUAU", "7-mer Z-score": 0.0696}
{"Oligonucleotide": "GCAUCGC", "7-mer Z-score": -0.293}
{"Oligonucleotide": "GGAUGGG", "7-mer Z-score": 0.468}
{"Oligonucleotide": "GGGCGAA", "7-mer Z-score": 0.649}
{"Oligonucleotide": "GUGCAGU", "7-mer Z-score": -0.164}
{"Oligonucleotide": "UGUGGUC", "7-mer Z-score": -0.222}
{"data": "Study 2", "Structure (SMILES)": "CN(C)C(=O)Cn1cc(-c2nc(C3(c4ccc(-c5cnc(N)nc5)cc4)CC3)no2)cn1", "effect on": "cell-free assay", "tested at": "10 µM"}
{"target": "HRH2 (Homo sapiens, UniProt P25021)", "inhibition [%]": -9.18}
{"target": "ADRB2 (Homo sapiens, UniProt P07550)", "inhibition [%]": 3.55}
{"target": "HRH4 (Homo sapiens, UniProt Q9H3N8)", "inhibition [%]": 36.6}
{"target": "CHRM5 (Homo sapiens, UniProt P08912)", "inhibition [%]": -1.63}
{"target": "DRD1 (Homo sapiens, UniProt P21728)", "inhibition [%]": -6.69}
{"target": "ADRA2C (Homo sapiens, UniProt P18825)", "inhibition [%]": 4.1}
{"target": "TMEM97 (Homo sapiens, UniProt Q5BJF2)", "inhibition [%]": 25}
{"data": "Study 3", "SMILES": "O=c1cc(N2CCOCC2)oc2c(-c3ccccc3)cccc12", "effect on": "enzyme activity", "mode": "inhibitor", "tested at": "0.5 µM", "relative to": "control"}
{"target": "WEE1 (Homo sapiens, UniProt P30291)", "remaining activity [%]": 76.4}
{"target": "MST1R (Homo sapiens, UniProt Q04912)", "remaining activity [%]": 109}
{"target": "RPS6KA2 (Homo sapiens, UniProt Q15349)", "remaining activity [%]": 92.4}
{"target": "ABL2 (Homo sapiens, UniProt P42684)", "remaining activity [%]": 98.1}
{"target": "CSNK1G3 (Homo sapiens, UniProt Q9Y6M4)", "remaining activity [%]": 92.4}
{"target": "FGFR1 (Homo sapiens, UniProt P11362)", "remaining activity [%]": 96.6}
{"target": "EPHA3 (Homo sapiens, UniProt P29320)", "remaining activity [%]": 98.7}
{"target": "MAP3K5 (Homo sapiens, UniProt Q99683)", "remaining activity [%]": 96.2}
{"target": "ULK3 (Homo sapiens, UniProt Q6PHR2)", "remaining activity [%]": 103}
{"target": "NEK6 (Homo sapiens, UniProt Q9HC98)", "remaining activity [%]": 112}
{"target": "ARAF (Homo sapiens, UniProt P10398)", "remaining activity [%]": 105}
{"target": "JAK3 (Homo sapiens, UniProt P52333)", "remaining activity [%]": 103}
{"target": "GRK7 (Homo sapiens, UniProt Q8WTQ7)", "remaining activity [%]": 112}
{"data": "Study 4", "target": "Eukaryotic initiation factor 4A-I (EIF4A1, Homo sapiens, UniProt P60842, residues 1-406, full length assumed)", "technique": "RNA Bind-n-Seq", "form": "RNA", "matrix": "in vitro", "tested at": "15 pmol", "setting": "4-mer, random 30-nt RNA, single round", "together with": "3 µM DMDA-PatA, 2 mM AMP-PNP", "relative to": "input library", "direction": "higher = stronger binding", "UniProt P60842, sequence (whole entry, looked up)": "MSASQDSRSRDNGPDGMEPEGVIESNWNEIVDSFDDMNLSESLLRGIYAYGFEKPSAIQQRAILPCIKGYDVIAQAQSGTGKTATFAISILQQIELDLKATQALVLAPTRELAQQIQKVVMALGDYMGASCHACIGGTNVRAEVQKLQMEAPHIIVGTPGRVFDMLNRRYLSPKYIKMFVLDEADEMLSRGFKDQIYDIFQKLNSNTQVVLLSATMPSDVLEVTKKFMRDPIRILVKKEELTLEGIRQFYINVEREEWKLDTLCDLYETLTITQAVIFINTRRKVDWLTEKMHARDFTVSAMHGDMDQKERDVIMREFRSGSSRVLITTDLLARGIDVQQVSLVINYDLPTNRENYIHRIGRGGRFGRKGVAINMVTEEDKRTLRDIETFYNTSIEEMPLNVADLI"}
{"Oligonucleotide": "CUAA", "4-mer enrichment [fold]": 1.03}
{"Oligonucleotide": "GCCU", "4-mer enrichment [fold]": 0.62}
{"Oligonucleotide": "AAUU", "4-mer enrichment [fold]": 1.16}
{"Oligonucleotide": "UUAU", "4-mer enrichment [fold]": 1.13}
{"Oligonucleotide": "GGUC", "4-mer enrichment [fold]": 0.864}
{"Oligonucleotide": "AAAA", "4-mer enrichment [fold]": 0.849}
{"Oligonucleotide": "GGGA", "4-mer enrichment [fold]": 1.24}
{"Oligonucleotide": "GUGA", "4-mer enrichment [fold]": 1.47}
{"note": "Some of these lines once more (study 3):"}
{"target": "MST1R (Homo sapiens, UniProt Q04912)", "remaining activity [%]": 109}
{"target": "RPS6KA2 (Homo sapiens, UniProt Q15349)", "remaining activity [%]": 92.4}
{"target": "NEK6 (Homo sapiens, UniProt Q9HC98)", "remaining activity [%]": 112}
{"target": "FGFR1 (Homo sapiens, UniProt P11362)", "remaining activity [%]": 96.6}
